Assay results of several laboratories.
Parts stem from different laboratories: compare values within a part only.

Block 1 — method: protein-binding microarray; form: double-stranded DNA, one strand shown; matrix: in vitro; concentration: 940 nM top; notes: 60-bp whole probe; added: salmon DNA 0.4 mg/ml; baseline: random background probes; direction: higher = stronger binding
Target: Interferon regulatory factor 5, full length, phosphomimetic (IRF5, Homo sapiens, UniProt Q13568-2, residues 1-514, S451D/S453D/S456D/S462D)
Strand | fitted relative affinity [z-score]
GCCTAGCACGTGAGTTTGACATCTTCATCAGTGCTAGTCTTGATTCGCTTGACGCTGCTG | -0.0179
GCCTAGCACGACGGTCTGGGACTGGGGACGTGCTAGGTCTTGATTCGCTTGACGCTGCTG | -0.343
GCCTAGCACTTCCCTCTCCCCTCTTGTGCTGTGCTAGTCTTGATTCGCTTGACGCTGCTG | 0.87
GCCTAGCACTTAGGTATCCCTCTCCTTTAGTGCTAGGTCTTGATTCGCTTGACGCTGCTG | 0.79

Block 2 — method: protein binding microarray; form: double-stranded DNA, one strand shown; matrix: in vitro; concentration: not given; baseline: not given; direction: higher = stronger binding
Target: Histone acetyltransferase KAT6A, winged helix 2, GST fusion (KAT6A, Homo sapiens, UniProt Q92794, residues 85-181)
Notes: 8-mer, flanks averaged, mean of 2 arrays, mostly near background
Construct (chain): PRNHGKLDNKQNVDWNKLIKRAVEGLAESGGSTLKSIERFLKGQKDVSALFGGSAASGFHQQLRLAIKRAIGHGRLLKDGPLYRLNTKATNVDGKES
Strand | E-score
GAGAGCTC | -0.0666
ACGCGAGA | 0.117
GAGCGCTA | 0.0386

Block 3 — method: aptamer microarray, sandwich; form: DNA with 2'F-ANA; matrix: in vitro; concentration: 200 nM; added: Cy3 exosite-II aptamer, 400 nM; direction: higher = stronger binding
Target: Prothrombin, mature alpha-thrombin (F2, Homo sapiens, UniProt P00734)
Notes: whole 15-mer aptamer, many near background
Strand | mean fluorescence intensity [a.u.]
GGTTGGTGTGGTTGG (2'F-ANA at 3 4 6 8 9 10 11) | 212
GGTTGGTGTGGTTGG (2'F-ANA at 1 2 4 5 7 9 12 13 15) | 67.8
GGTTGGTGTGGTTGG (2'F-ANA at 2 3 5 7 8 9 12) | 259

Further values, each from its own experiment
Substance | target | test | system | setting | how to read | quantity | value
PhoQ, residues 284 288 289 292 302 303 SSTLLI | PhoP, residues 12 14 15 18 19 IQSYL (Escherichia coli, UniProt P23836) | Sort-seq, refers to: YFP reporter | E. coli | PhoQ-PhoP variant library, added: 10 µM Mg2+ | baseline: high Mg2+ state, higher = stronger signaling | fold induction | 11

Excerpt of the above (further values, each from its own experiment):
Substance | target | test | system | setting | how to read | quantity | value
PhoQ, residues 284 288 289 292 302 303 SSTLLI | PhoP, residues 12 14 15 18 19 IQSYL (Escherichia coli, UniProt P23836) | Sort-seq, refers to: YFP reporter | E. coli | PhoQ-PhoP variant library, added: 10 µM Mg2+ | baseline: high Mg2+ state, higher = stronger signaling | fold induction | 11
